# Measured values from different studies.
# Lines come from different studies, so protocols differ. Numbers after ± are the reported error.
Compound,test,system,conditions,scale,measurement,value
N=C(N)NCCC[C@@H]1NC(=O)[C@H](CCCCNC(=O)CNC(=O)CNC(=O)CNC(=O)CC[C@H](NC(=O)c2ccc(NN=Cc3ccccc3S(=O)(=O)O)nc2)C(=O)NCC(=O)NCC(=O)NCC(=O)NCCCC[C@@H]2NC(=O)[C@@H](Cc3ccccc3)NC(=O)[C@H](CC(=O)O)NC(=O)CNC(=O)[C@H](CCCNC(=N)N)NC2=O)NC(=O)[C@@H](Cc2ccccc2)NC(=O)[C@H](CC(=O)O)NC(=O)CNC1=O [technetium-99m labelled],,"athymic nu/nu mouse, female, U-87 MG glioma xenograft","intravenous, 30 min",reference: tumour over liver,tumour to tissue ratio,2.85 ± 0.29
N=C(N)NCCC[C@@H]1NC(=O)[C@H](CCCCNC(=O)CCOCCOCCOCCOCCNC(=O)CC[C@H](NC(=O)CCOCCOCCOCCOCCNC(=O)CN2CCN(CC(=O)O)CCN(CC(=O)O)CCN(CC(=O)O)CC2)C(=O)NCCOCCOCCOCCOCCC(=O)NCCCC[C@@H]2NC(=O)[C@@H](Cc3ccccc3)NC(=O)[C@H](CC(=O)O)NC(=O)CNC(=O)[C@H](CCCNC(=N)N)NC2=O)NC(=O)[C@@H](Cc2ccccc2)NC(=O)[C@H](CC(=O)O)NC(=O)CNC1=O [copper-64 labelled],ex vivo biodistribution,"female athymic nude mouse, U-87 MG xenograft",240 min post injection,,tumour to kidney ratio,2.28 ± 0.31
N=C(N)NCCC[C@@H]1NC(=O)[C@H](CCCCNC(=O)c2ccc(CNC34CNCCNCC(NCc5ccc(C(=O)NCCCC[C@@H]6NC(=O)[C@@H](Cc7ccc(O)cc7)NC(=O)[C@H](CC(=O)O)NC(=O)CNC(=O)[C@H](CCCNC(=N)N)NC6=O)cc5)(CNCCNC3)CNCCNC4)cc2)NC(=O)[C@@H](Cc2ccc(O)cc2)NC(=O)[C@H](CC(=O)O)NC(=O)CNC1=O [copper-64 labelled],microPET,"female athymic nude mouse, U-87 MG xenograft, U-87 MG tumour","intravenous, 1 h",,tumour uptake,6.16 ± 0.88 %ID/g
N=C(N)NCCC[C@@H]1NC(=O)[C@H](CCCCNC(=O)CCOCCOCCOCCOCCNC(=O)CC[C@H](NC(=O)CCOCCOCCOCCOCCNC(=O)CC[C@H](NC(=O)CN2CCN(CC(=O)O)CCN(CC(=O)O)CCN(CC(=O)O)CC2)C(=O)NCCOCCOCCOCCOCCC(=O)N[C@@H](CCC(=O)NCCOCCOCCOCCOCCC(=O)NCCCC[C@@H]2NC(=O)[C@@H](Cc3ccccc3)NC(=O)[C@H](CC(=O)O)NC(=O)CNC(=O)[C@H](CCCNC(=N)N)NC2=O)C(=O)NCCOCCOCCOCCOCCC(=O)NCCCC[C@@H]2NC(=O)[C@@H](Cc3ccccc3)NC(=O)[C@H](CC(=O)O)NC(=O)CNC(=O)[C@H](CCCNC(=N)N)NC2=O)C(=O)NCCOCCOCCOCCOCCC(=O)NCCCC[C@@H]2NC(=O)[C@@H](Cc3ccccc3)NC(=O)[C@H](CC(=O)O)NC(=O)CNC(=O)[C@H](CCCNC(=N)N)NC2=O)NC(=O)[C@@H](Cc2ccccc2)NC(=O)[C@H](CC(=O)O)NC(=O)CNC1=O [indium-111 labelled],,female athymic nude mouse,"intravenous, 3 µCi, 24 h, U-87 MG glioma xenograft",reference: tumour over muscle,tumour to muscle ratio,13.1 ± 2.85
CC(C)C[C@H](NC(=O)C[C@H](O)[C@H](CC(C)C)NC(=O)[C@H](Cc1c[nH]cn1)NC(=O)CNC(=O)[C@@H](NC(=O)[C@H](C)NC(=O)[C@H](Cc1c[nH]c2ccccc12)NC(=O)[C@H](CCC(N)=O)NC(=O)[C@@H](Cc1ccccc1)NC(=O)c1ccc(NC(=O)CNC(=O)CCC(C(=O)O)N2CCN(CC(=O)O)CCN(CC(=O)O)CC2)cc1)C(C)C)C(N)=O (stereo partly shown) [fluorine-18 labelled],PET imaging,"mouse, PC-3 xenograft","intravenous, 2 h, 18F-labelled",,tumour uptake,3.9 ± 0.48 %ID/g
C[C@@H]1NC(=O)[C@H](CCC(=O)O)NC(=O)CNC(=O)[C@H](CC(=O)O)NC(=O)CNC(=O)[C@H](CCCCNC(=O)CCCCCNC(=O)[C@H](CS)NC(=O)CCCCCNC(=O)CN2CCN(CC(=O)O)CCN(CC(=O)O)CCN(CC(=O)O)CC2)NC(=O)[C@@H](Cc2ccc(O)cc2)NC1=O [gallium-68 labelled],,"mouse, intratibial A549",dose not given,,tumour to muscle ratio,2.3 ± 0.17
N=C(N)NCCC[C@@H]1NC(=O)[C@H](CCCCNC(=O)CNC(=O)CNC(=O)CNC(=O)CC[C@H](NC(=O)CCOCCOCCOCCOCCNC(=O)CC[C@H](NC(=O)CN2CCN(CC(=O)O)CCN(CC(=O)O)CCN(CC(=O)O)CC2)C(=O)NCCOCCOCCOCCOCCC(=O)N[C@@H](CCC(=O)NCC(=O)NCC(=O)NCC(=O)NCCCC[C@@H]2NC(=O)[C@@H](Cc3ccccc3)NC(=O)[C@H](CC(=O)O)NC(=O)CNC(=O)[C@H](CCCNC(=N)N)NC2=O)C(=O)NCC(=O)NCC(=O)NCC(=O)NCCCC[C@@H]2NC(=O)[C@@H](Cc3ccccc3)NC(=O)[C@H](CC(=O)O)NC(=O)CNC(=O)[C@H](CCCNC(=N)N)NC2=O)C(=O)NCC(=O)NCC(=O)NCC(=O)NCCCC[C@@H]2NC(=O)[C@@H](Cc3ccccc3)NC(=O)[C@H](CC(=O)O)NC(=O)CNC(=O)[C@H](CCCNC(=N)N)NC2=O)NC(=O)[C@@H](Cc2ccccc2)NC(=O)[C@H](CC(=O)O)NC(=O)CNC1=O [indium-111 labelled],,female athymic nude mouse,"intravenous, 1 h, U-87 MG glioma xenograft",reference: tumour over bone,tumour to bone ratio,5.8 ± 0.65
N=C(N)NCCC[C@@H]1NC(=O)[C@H](CCCCNC(=O)CNC(=O)CNC(=O)CNC(=O)c2ccc(NN=Cc3ccccc3S(=O)(=O)O)nc2)NC(=O)[C@@H](Cc2ccccc2)NC(=O)[C@H](CC(=O)O)NC(=O)CNC1=O [technetium-99m labelled],,"athymic nu/nu mouse, female, U-87 MG glioma xenograft","intravenous, 120 min",reference: tumour over blood,tumour to tissue ratio,13.1 ± 3.84
CC(C)C[C@H](NC(=O)[C@@H]1CCCN1C(=O)[C@H](CCCCN)NC(=O)[C@@H](N)CO)C(=O)N1CCC[C@H]1C(=O)N[C@@H](CCC(=O)O)C(=O)N[C@H](C(=O)N[C@H](C(=O)N[C@@H](CC(=O)O)C(=O)N[C@@H](CCC(=O)O)C(=O)N[C@@H](Cc1ccc(O)cc1)C(=O)N[C@@H](Cc1cn(CCOCCOCCOCCNC(=O)CCc2ccc(O)c(CN(CCN(CC(=O)O)Cc3cc(CCC(=O)NCCCC[C@H](NC(=O)N[C@@H](CCC(=O)O)C(=O)O)C(=O)O)ccc3O)CC(=O)O)c2)nn1)C(=O)O)[C@@H](C)O)C(C)C [gallium-68 labelled],,"NMRI nu/nu mouse, LNCaP xenograft","10 MBq, high molar activity",reference: tumour over muscle,tumour to muscle ratio,39.3
N=C(N)NCCC[C@@H]1NC(=O)[C@H](CCCCNC(=O)CCOCCOCCOCCOCCNC(=O)CN2CCN(CC(=O)O)CCN(CC(=O)O)CCN(CC(=O)O)CC2)NC(=O)[C@@H](Cc2ccccc2)NC(=O)[C@H](CC(=O)O)NC(=O)CNC1=O [indium-111 labelled],,"female athymic nude mouse, U-87 MG tumour","intravenous, 3 µCi, 72 h, U-87 MG glioma xenograft",,tumour uptake,0.7 %ID/g

# Some of these lines once more:
Compound,test,system,conditions,scale,measurement,value
CC(C)C[C@H](NC(=O)C[C@H](O)[C@H](CC(C)C)NC(=O)[C@H](Cc1c[nH]cn1)NC(=O)CNC(=O)[C@@H](NC(=O)[C@H](C)NC(=O)[C@H](Cc1c[nH]c2ccccc12)NC(=O)[C@H](CCC(N)=O)NC(=O)[C@@H](Cc1ccccc1)NC(=O)c1ccc(NC(=O)CNC(=O)CCC(C(=O)O)N2CCN(CC(=O)O)CCN(CC(=O)O)CC2)cc1)C(C)C)C(N)=O (stereo partly shown) [fluorine-18 labelled],PET imaging,"mouse, PC-3 xenograft","intravenous, 2 h, 18F-labelled",,tumour uptake,3.9 ± 0.48 %ID/g
